Results from different studies.
“And” joins repeats or separate records; there may be more than shown. ± marks the error that the study gave.
CASP7: Caspase-7 (CASP7, Homo sapiens, UniProt P55210)
Chain of UniProt P55210 (whole entry, looked up): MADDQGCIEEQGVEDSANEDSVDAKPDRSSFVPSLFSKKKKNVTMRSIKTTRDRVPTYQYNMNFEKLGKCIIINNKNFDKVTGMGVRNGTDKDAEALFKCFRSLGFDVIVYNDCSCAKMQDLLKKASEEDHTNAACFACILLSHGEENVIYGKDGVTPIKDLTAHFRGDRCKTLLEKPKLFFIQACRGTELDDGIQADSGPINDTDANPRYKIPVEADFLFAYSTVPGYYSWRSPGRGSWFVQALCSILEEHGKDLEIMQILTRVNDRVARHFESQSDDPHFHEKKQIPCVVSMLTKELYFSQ
T1: G-quadruplex DNA, G-quadruplex (Homo sapiens); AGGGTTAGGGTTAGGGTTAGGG
Chain of UniProt P17706 (whole entry, looked up): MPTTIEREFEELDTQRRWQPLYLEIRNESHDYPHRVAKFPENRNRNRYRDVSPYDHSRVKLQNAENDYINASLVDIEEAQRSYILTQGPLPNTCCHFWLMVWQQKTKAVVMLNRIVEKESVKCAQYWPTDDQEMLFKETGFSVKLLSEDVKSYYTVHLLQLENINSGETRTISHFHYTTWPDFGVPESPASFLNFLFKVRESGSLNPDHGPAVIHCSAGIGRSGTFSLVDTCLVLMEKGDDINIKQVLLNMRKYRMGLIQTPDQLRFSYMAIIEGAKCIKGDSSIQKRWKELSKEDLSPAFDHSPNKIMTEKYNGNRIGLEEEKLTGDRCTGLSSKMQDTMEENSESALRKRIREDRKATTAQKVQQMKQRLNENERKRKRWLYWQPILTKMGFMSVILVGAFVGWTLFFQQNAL
Chain of UniProt P02716 (whole entry, unmodified, looked up): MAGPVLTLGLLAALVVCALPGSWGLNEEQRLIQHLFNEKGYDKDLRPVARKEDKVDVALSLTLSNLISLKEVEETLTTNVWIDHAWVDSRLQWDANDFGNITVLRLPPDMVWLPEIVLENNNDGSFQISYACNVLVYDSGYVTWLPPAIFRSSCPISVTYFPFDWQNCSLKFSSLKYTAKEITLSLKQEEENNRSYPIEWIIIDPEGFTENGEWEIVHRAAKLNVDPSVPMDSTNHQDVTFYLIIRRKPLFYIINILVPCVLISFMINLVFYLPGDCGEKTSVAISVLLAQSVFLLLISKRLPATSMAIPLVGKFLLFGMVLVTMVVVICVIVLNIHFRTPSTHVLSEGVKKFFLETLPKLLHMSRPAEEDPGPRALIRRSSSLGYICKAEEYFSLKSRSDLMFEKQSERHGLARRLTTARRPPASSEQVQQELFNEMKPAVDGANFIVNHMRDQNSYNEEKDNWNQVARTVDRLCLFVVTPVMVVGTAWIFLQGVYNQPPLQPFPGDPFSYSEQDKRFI
Chain of UniProt P20782 (whole entry, unmodified, looked up): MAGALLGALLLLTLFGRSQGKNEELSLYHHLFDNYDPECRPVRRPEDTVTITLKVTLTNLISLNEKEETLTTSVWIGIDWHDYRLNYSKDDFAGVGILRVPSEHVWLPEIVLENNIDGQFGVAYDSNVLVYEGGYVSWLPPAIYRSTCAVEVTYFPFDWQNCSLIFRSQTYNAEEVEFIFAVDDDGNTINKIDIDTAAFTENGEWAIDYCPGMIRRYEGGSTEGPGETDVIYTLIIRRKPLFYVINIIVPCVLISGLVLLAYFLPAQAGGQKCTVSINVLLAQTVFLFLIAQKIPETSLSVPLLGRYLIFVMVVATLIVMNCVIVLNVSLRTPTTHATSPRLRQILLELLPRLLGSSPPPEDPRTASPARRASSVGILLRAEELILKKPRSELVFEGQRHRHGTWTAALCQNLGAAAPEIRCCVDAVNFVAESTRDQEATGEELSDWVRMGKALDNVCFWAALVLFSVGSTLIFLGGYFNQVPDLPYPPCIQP
Chain of UniProt P04756 (whole entry, unmodified, looked up): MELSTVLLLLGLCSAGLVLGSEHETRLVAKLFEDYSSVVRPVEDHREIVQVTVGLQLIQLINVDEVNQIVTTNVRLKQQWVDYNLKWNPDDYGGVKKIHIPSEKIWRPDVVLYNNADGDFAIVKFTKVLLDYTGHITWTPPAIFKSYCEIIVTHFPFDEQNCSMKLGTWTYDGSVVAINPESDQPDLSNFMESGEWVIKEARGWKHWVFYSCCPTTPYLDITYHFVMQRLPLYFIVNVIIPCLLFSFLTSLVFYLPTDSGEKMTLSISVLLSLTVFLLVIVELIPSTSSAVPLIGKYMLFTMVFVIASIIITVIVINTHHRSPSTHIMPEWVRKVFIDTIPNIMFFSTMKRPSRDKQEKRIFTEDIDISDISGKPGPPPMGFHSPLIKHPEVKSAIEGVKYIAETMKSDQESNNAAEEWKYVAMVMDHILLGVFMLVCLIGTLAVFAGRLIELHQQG
Chain of UniProt P34972 (whole entry, looked up): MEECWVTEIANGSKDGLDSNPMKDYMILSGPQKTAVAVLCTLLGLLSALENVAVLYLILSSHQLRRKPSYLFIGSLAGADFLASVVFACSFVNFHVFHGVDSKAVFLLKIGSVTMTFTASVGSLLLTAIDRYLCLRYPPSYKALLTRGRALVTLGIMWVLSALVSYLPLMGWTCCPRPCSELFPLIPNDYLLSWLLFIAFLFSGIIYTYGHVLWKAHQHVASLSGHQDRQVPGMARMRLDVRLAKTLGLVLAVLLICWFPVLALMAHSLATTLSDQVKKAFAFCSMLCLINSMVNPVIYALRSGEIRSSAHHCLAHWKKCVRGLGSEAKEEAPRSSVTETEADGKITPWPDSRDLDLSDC
Chain of UniProt P00921 (whole entry, looked up): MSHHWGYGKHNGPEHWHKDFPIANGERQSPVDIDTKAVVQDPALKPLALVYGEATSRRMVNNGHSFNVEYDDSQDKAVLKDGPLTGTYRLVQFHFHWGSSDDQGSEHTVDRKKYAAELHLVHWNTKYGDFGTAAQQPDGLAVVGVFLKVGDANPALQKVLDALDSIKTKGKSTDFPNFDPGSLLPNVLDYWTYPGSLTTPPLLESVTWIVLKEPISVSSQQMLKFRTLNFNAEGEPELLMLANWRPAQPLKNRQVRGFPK
Chain of UniProt Q03431 (whole entry, looked up): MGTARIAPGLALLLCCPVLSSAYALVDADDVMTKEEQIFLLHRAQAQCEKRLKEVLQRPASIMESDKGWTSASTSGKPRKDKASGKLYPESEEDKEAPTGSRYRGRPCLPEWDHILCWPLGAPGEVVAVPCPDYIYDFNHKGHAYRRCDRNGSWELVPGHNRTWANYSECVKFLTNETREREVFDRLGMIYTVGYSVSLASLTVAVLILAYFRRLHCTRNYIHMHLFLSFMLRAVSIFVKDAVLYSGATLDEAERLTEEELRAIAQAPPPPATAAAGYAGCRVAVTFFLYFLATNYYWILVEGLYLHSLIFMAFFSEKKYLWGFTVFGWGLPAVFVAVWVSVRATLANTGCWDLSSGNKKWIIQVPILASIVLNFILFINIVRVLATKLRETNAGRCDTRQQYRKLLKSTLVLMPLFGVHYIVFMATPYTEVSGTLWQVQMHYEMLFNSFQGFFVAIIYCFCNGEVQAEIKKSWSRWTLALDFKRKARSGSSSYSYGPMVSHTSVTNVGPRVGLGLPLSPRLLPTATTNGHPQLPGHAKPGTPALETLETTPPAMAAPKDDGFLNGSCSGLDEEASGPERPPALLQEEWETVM
Chain of UniProt P19491 (whole entry, looked up): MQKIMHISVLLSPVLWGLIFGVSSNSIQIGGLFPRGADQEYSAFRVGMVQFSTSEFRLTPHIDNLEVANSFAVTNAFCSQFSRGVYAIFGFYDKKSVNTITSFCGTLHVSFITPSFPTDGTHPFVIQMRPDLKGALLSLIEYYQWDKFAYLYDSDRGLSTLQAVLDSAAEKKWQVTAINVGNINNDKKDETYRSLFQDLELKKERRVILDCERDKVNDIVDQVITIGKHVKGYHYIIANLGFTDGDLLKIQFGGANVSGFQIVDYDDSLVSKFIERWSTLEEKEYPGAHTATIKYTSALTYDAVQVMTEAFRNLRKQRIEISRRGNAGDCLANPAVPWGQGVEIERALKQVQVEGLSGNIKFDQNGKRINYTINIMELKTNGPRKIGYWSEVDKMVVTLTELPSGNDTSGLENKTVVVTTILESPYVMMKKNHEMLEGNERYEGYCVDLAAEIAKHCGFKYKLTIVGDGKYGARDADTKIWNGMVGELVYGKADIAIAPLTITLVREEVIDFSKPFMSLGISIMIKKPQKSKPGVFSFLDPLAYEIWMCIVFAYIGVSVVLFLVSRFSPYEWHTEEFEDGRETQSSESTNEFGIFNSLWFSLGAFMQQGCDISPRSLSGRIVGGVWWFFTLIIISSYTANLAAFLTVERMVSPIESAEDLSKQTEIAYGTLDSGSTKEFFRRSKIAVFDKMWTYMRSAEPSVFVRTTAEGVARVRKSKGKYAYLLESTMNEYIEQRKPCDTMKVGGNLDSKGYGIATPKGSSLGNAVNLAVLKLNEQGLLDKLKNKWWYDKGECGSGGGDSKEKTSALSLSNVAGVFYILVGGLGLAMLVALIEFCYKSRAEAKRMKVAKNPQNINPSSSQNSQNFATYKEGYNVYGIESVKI
Chain of UniProt P21397 (whole entry, looked up): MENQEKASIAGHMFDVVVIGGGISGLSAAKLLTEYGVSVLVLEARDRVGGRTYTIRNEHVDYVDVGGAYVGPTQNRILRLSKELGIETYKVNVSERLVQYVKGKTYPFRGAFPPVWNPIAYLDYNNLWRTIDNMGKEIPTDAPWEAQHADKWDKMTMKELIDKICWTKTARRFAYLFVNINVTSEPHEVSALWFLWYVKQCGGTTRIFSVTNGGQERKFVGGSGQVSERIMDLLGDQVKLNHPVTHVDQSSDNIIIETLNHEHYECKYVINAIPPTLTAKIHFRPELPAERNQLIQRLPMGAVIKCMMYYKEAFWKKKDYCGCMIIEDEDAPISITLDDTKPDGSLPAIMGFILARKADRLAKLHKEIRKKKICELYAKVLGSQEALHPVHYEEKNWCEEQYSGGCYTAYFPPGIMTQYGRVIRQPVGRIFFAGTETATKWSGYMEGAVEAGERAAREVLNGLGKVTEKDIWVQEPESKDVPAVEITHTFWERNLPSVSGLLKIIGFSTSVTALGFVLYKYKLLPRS

For `CC(C)c1ccc(/C=C/C(=O)c2nc3ccccc3[nH]2)cc1`, “activity vs control” read 55.9% (Amine oxidase [flavin-containing] A (MAOA, Homo sapiens, UniProt P21397); enzyme activity, inhibitor; 10 µM).
With `CC[C@H](C)[C@H](NC(=O)[C@H](CO)NC(=O)[C@H](CO)NC(=O)[C@H](CCC(=O)O)NC(=O)[C@H](CCC(=O)O)NC(=O)[C@H](CCCCN)NC(=O)[C@H](CO)NC(=O)[C@@H](NC(=O)[C@H](CO)NC(=O)[C@H](CC(C)C)NC(=O)[C@H](Cc1ccccc1)NC(=O)[C@H](CCCNC(=N)N)NC(=O)[C@H](C)NC(=O)[C@H](Cc1ccccc1)NC(=O)[C@H](Cc1ccccc1)NC(=O)[C@@H]1CCCN1C(=O)[C@H](CC(C)C)NC(=O)[C@H](C)NC(=O)[C@H](CCCCN)NC(=O)CNC(=O)[C@H](CCC(N)=O)NC(=O)[C@H](CCC(N)=O)NC(=O)[C@H](CC(=O)O)NC(=O)[C@H](CC(N)=O)NC(=O)[C@@H]1CCCN1C(=O)[C@H](Cc1ccc(O)cc1)NC(=O)[C@H](C)NC(=O)[C@@H](N)CCSC)C(C)C)C(=O)N[C@@H](CCCCN)C(=O)N[C@@H](CO)C(=O)N1CCC[C@H]1C(=O)N[C@@H](CO)C(=O)N1CCC[C@H]1C(=O)N[C@@H](CC(=O)O)C(=O)N[C@@H](Cc1c[nH]cn1)C(=O)N[C@@H](CCC(=O)O)C(=O)N[C@H](C(=O)N[C@@H](CO)C(=O)N[C@H](C(=O)N[C@@H](CCCNC(=N)N)C(=O)N[C@@H](CCCCN)C(=O)N[C@@H](Cc1ccc(O)cc1)C(=O)N1CCC[C@H]1C(=O)N[C@@H](CO)C(=O)N[C@@H](CC(=O)O)C(=O)N[C@@H](Cc1c[nH]c2ccccc12)C(=O)N[C@@H](CCC(=O)O)C(=O)N[C@@H](CCC(=O)O)C(=O)N[C@@H](Cc1c[nH]c2ccccc12)C(=O)O)[C@@H](C)O)[C@@H](C)CC` the binding stoichiometry was 0.8 ± 0.1 (uncharacterized protein (Microcystis aeruginosa MRC, UniProt B2G3C9); isothermal titration calorimetry; concentration not given, pH 8.0, 25 °C).
For `Cn1c(=O)n(C2CCC(=O)NC2=O)c2ccc(C3CCN(CC(=O)Nc4cccc(CS(=O)(=O)N5CC[C@H](Nc6cccc(-c7sc(C(=O)O)c(OCC(=O)O)c7Cl)c6)CC5(C)C)c4)CC3)cc21` (some centres unmarked), “BLI binding response” read 0.415 a.u. and 0.395 a.u. (Tyrosine-protein phosphatase non-receptor type 2 (PTPN2, Homo sapiens, UniProt P17706); degrader, bio-layer interferometry; 250 nM, biotinylated protein immobilised; higher = more binding).
For `CN(C)c1ccc(C2=C/C(=C/C=C/c3sc4ccccc4[n+]3C)c3ccccc3O2)cc1`, binding read “binds” (T1, G-quadruplex DNA, G-quadruplex (Homo sapiens); fluorescence turn-on).
For `CC(=O)Nc1ccc(-c2ccnc(NCC3CCC3)n2)cc1`, “number of kinases hit” read 3 (human kinase panel; binding, KINOMEscan; 10000 nM, %Ctrl below 10).
For `O=C(O)Cc1cc2c(cc1C(=O)c1cccc(Cl)c1)OCO2`, “deactivation time constant” read 9.8 ± 0.6 ms (Glutamate receptor 2 (Gria2, Rattus norvegicus, UniProt P19491); glutamate-evoked current, whole-cell patch clamp; HEK-293T; concentration not given, weighted tau, 1 ms pulse, with: glutamate).
`CC[C@H](NC(=O)[C@H](CC(C)C)NC(=O)[C@H](CC(=O)O)NC(C)=O)C(=O)N[C@@H](CC(=O)O)C(=O)COC(=O)c1c(C)cccc1C` has a kinact/KI of 368000 M⁻¹ s⁻¹ (CASP7; enzyme activity, inhibitor).
For `CCCCCC=CC=C1C(=O)C=CC1CC=CCCCC(=O)O` (centres unmarked), “isoTOP-ABPP competition ratio” read 6.5 (MOB4 (Homo sapiens, UniProt Q9Y3A3); competitive isoTOP-ABPP; Ramos soluble proteome; 100 µM, 60 min, with: iodoacetamide probe; reference: DMSO over compound-treated, higher = stronger cysteine blockade).
The EC50 ratio of `CCOC(=O)[C@](CC)(CCCSCCOCCOCCN)NC(=O)c1ccc(C2CC2)c(Cc2ccc(F)cc2)n1` is reported as 114 (Cannabinoid receptor 2 (CNR2, Homo sapiens, UniProt P34972); cAMP level; with: forskolin; reference: CB1 over CB2 (human)).
For `C[N+]1(C)CCSC1`, the affinity ratio was 1.3 (Chrnd/Chrna1/Chrne (Mus musculus, UniProt P02716+P04756+P20782, G173A/S470W); ligand binding, agonist, single-channel kinetics; chain A; reference: wild type over mutant).
With `CC(=O)N[C@@H](CC(=O)O)C(=O)N[C@@H](C)C(=O)N[C@@H](Cc1ccc(N)cc1)C(=O)N[C@@H](CC(=O)O)C(=O)COC(=O)c1c(C)cccc1C` the kinact/KI was 216000 M⁻¹ s⁻¹ (CASP7; enzyme activity, inhibitor).
For `CN(C)c1ccc2c(c1)C(=O)N(CCc1ccc(O)cc1)C2=O`, the emission maximum was 546 nm (Carbonic anhydrase 2 (CA2, Bos taurus, UniProt P00921); binding).
For `CCCCCCCCCCCCCCCC(=O)NCCCC[C@H](NC(=O)[C@H](CCC(=O)O)NC(=O)[C@H](Cc1ccc(O)cc1)NC(=O)[C@H](CCC(=O)O)NC(=O)COCC(=O)NCCCOCCOCCOCCCNC(=O)[C@H](Cc1c[nH]c2ccccc12)NC(=O)[C@H](CCCCN)NC(=O)[C@H](C)NC(=O)[C@H](CCCCNC(=N)N)NC(=O)[C@H](CCC(N)=O)NC(=O)[C@H](Cc1c[nH]cn1)NC(=O)[C@H](CCSC)NC(=O)[C@H](CC(C)C)NC(=O)[C@H](CCC(N)=O)NC(=O)[C@@H](NC(=O)[C@H](CCC(=O)O)NC(=O)C(C)(C)NC(=O)[C@@H](NC(=O)C(C)(C)N)C(C)C)[C@@H](C)CC)C(=O)N[C@@H](CCC(=O)O)C(=O)N[C@@H](Cc1ccc(O)cc1)C(=O)N[C@@H](CCC(=O)O)C(N)=O`, “cAMP luminescence AUC” read 84.5 a.u. (Parathyroid hormone/parathyroid hormone-related peptide receptor (PTH1R, Homo sapiens, UniProt Q03431); agonist; Saos-2 with cAMP reporter; 10 nM, 30 min, ligand-on phase; higher = more cAMP).
`CCCCCCCCCCCCCCCC(=O)OCC(CSC[C@H](N)C(=O)N[C@@H](CO)C(=O)N[C@@H](CCCCN)C(=O)N[C@@H](CCCCN)C(=O)N[C@@H](CCCCN)C(=O)N[C@@H](CCCCN)C(=O)NCCCCCC(=O)N[C@@H](CCCCN)C(=O)N[C@@H](CC(C)C)C(=O)N[C@H](C(=O)N[C@@H](Cc1ccccc1)C(=O)N[C@@H](Cc1ccccc1)C(=O)N[C@@H](Cc1ccc2ccccc2c1)C(=O)O)C(C)C)OC(=O)CCCCCCCCCCCCCCC` (some centres unmarked) gave a fibril diameter of 35.1 nm (Amyloid-beta precursor protein, fibrillar amyloid-beta (APP, Homo sapiens, UniProt P05067); TEM; 2.0 eq, 18 h, fibril 7, with: APP 20 µM).

For quick reference, copied from above:
For `O=C(O)Cc1cc2c(cc1C(=O)c1cccc(Cl)c1)OCO2`, “deactivation time constant” read 9.8 ± 0.6 ms (Glutamate receptor 2 (Gria2, Rattus norvegicus, UniProt P19491); glutamate-evoked current, whole-cell patch clamp; HEK-293T; concentration not given, weighted tau, 1 ms pulse, with: glutamate).
